# Published values of several laboratories.
# A part holds a random share of what one study measured. Values joined by “and” are separate records of one study, mostly repeats; a detail may differ.
# UniProt P21918, sequence (whole entry, looked up): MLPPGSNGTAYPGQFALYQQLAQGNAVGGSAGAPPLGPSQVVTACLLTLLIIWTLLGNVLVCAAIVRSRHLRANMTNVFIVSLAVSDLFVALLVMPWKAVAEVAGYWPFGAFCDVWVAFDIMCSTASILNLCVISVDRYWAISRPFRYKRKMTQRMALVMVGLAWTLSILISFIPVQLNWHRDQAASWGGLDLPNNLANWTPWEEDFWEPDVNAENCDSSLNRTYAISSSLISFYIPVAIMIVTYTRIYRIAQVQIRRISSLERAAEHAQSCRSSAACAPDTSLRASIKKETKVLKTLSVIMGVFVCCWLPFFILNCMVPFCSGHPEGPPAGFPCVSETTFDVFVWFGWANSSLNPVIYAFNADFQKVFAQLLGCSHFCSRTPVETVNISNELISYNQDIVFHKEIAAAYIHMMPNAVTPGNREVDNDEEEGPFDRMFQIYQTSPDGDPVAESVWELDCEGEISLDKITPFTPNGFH

# Study 1 — Structure (SMILES): C=CCc1ccc(O)c(-c2ccc(O)c(CC=C)c2)c1; read-out: chloride current
# ANO1 del476-501: Anoctamin-1 (ANO1, Homo sapiens, UniProt Q5XXA6, del476-501)
# UniProt Q5XXA6, sequence (whole entry, unmodified, looked up): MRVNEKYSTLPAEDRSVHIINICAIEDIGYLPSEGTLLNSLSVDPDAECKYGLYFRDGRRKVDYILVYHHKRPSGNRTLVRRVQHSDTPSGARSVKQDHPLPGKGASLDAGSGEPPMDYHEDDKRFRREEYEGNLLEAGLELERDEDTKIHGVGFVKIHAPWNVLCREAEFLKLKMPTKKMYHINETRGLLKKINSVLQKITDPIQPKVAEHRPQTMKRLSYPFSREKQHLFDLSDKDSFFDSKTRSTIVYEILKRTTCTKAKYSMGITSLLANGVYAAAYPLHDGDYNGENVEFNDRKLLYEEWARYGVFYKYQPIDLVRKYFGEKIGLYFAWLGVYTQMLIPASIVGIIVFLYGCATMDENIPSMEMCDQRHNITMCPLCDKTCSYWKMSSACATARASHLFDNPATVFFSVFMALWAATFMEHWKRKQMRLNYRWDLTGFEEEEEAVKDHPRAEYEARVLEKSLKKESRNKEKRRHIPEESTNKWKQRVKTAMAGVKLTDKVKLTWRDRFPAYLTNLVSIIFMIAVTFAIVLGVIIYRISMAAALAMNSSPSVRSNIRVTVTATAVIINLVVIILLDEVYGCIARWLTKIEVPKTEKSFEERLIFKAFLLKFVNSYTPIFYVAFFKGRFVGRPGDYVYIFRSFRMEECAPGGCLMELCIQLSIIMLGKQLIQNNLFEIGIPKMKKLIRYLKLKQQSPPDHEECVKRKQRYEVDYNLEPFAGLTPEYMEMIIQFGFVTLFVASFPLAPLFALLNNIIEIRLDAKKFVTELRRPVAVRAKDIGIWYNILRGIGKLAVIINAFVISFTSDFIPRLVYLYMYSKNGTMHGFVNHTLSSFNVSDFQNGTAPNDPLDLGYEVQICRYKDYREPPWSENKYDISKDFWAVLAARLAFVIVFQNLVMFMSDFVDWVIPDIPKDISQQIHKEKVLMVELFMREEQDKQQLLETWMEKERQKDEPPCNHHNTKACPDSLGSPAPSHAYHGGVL
# ANO1 del476-501/F628A: Anoctamin-1 (ANO1, Homo sapiens, UniProt Q5XXA6, del476-501/F628A)
target,mode,technique,tested at,notes,together with,normalized current
ANO1 del476-501,,whole-cell voltage clamp,1 µM,"wild type, I-V at -100 mV",4 µM Ca2+,-0.784
"Anoctamin-1 (ANO1, Homo sapiens, UniProt Q5XXA6, del476-501/K629A)",,inside-out patch clamp,10 µM,membrane voltage -20 mV,,-0.099
"Anoctamin-1 (ANO1, Homo sapiens, UniProt Q5XXA6, del476-501/R631A)",inhibitor,whole-cell voltage clamp,1 µM,R605A mutant,,0.801
ANO1 del476-501/F628A,,whole-cell voltage clamp,3 µM,I-V at -100 mV,4 µM Ca2+,-0.815
ANO1 del476-501,,whole-cell voltage clamp,1 µM,"wild type, I-V at 60 mV",4 µM Ca2+,0.57
TMEM16A (human) K603A/E623A,,inside-out patch clamp,10 µM,membrane voltage 60 mV,,0.374
ANO1 del476-501/F628A,,whole-cell voltage clamp,1 µM,I-V at -80 mV,4 µM Ca2+,-0.641
"Anoctamin-1 (ANO1, Homo sapiens, UniProt Q5XXA6, del476-501/E659A)",,inside-out patch clamp,10 µM,membrane voltage 100 mV,,0.814

# Study 2 — cell line: HuT78; tested at: concentration not given; notes: unit not given; relative to: vehicle
# SMILES: CC1=C(/C=C/C(C)=C/C=C/C(C)=C/C(=O)O)C(C)(C)CCC1
technique,refers to,mRNA level
qPCR,STAT4,2.22 and 2.69 and 2.08
,GATA3,0.626 and 0.509 and 0.587
,IL2RA,1.47 and 1.56 and 1.65
qPCR,TGFB1,0.747 and 0.601 and 0.707
qPCR,IL4,0.364 and 0.232 and 0.362

# Study 3 — cell line: mouse MPNST tumor cells; technique: high-content immunofluorescence imaging; refers to: nuclear SOX9; tested at: 10 µM; time: 12 h; notes: mean of 2 replicates; relative to: DMSO control; reading: higher = more nuclear SOX9
Compound,nuclear SOX9 intensity
CCCCCN(CCCOC)C(=O)C(CCC(=O)O)NC(=O)c1ccc(Cl)c(Cl)c1 (centres unmarked),99.1 % of DMSO
Cc1cccc(-c2[nH]ncc2-c2ccc3ncccc3n2)n1,95.9 % of DMSO
CC1CC(OC(=O)C(O)c2ccccc2)CC(C)(C)C1 (centres unmarked),97.5 % of DMSO
OCc1cc(C(O)CNCCCCCCOCCCCc2ccccc2)ccc1O (centres unmarked),130 % of DMSO
CC(=O)[C@H]1CC[C@H]2[C@@H]3CCC4=CC(=O)CC[C@]4(C)[C@H]3CC[C@]12C,99.9 % of DMSO
c1ccc(CC2=NCCN2)cc1,96.8 % of DMSO and 109 % of DMSO
COc1ccccc1S(=O)(=O)Nc1ccc2c(c1)CN(C)C(=O)N2,110 % of DMSO
O=C(Nc1nc2ccc(NC(=O)C34CC5CC(CC(C5)C3)C4)cc2s1)c1ccccc1,173 % of DMSO

# Mixed results
SMILES,target or system,assay,test system,setting,quantity,result
C[C@H](NC(=O)Nc1cc2[nH]ncc2c(CO)n1)c1ccccn1,"D(1B) dopamine receptor (DRD5, Homo sapiens, UniProt P21918)",cell-free assay,,10 µM,inhibition,7.56%
CC(C)n1cnc(-c2ccc(F)cc2)c1-c1ncc(C(=O)Nc2ccc(N3CCN(C)CC3)cc2)[nH]1,,,"human, idiopathic pulmonary fibrosis","30 mg once daily, trial, treatment-emergent",patients with interstitial lung disease,0%

# Repeated from above (study 3):
Compound,nuclear SOX9 intensity
OCc1cc(C(O)CNCCCCCCOCCCCc2ccccc2)ccc1O (centres unmarked),130 % of DMSO
CC(=O)[C@H]1CC[C@H]2[C@@H]3CCC4=CC(=O)CC[C@]4(C)[C@H]3CC[C@]12C,99.9 % of DMSO
c1ccc(CC2=NCCN2)cc1,96.8 % of DMSO and 109 % of DMSO
